Results from different studies.
Lines come from different studies, so protocols differ. Values joined by “and” are separate records of one study, mostly repeats; a detail may differ.
Target: NUAK family SNF1-like kinase 1 (NUAK1, Homo sapiens, UniProt O60285)
Sequence (O60285 1-661, as in one of the studies): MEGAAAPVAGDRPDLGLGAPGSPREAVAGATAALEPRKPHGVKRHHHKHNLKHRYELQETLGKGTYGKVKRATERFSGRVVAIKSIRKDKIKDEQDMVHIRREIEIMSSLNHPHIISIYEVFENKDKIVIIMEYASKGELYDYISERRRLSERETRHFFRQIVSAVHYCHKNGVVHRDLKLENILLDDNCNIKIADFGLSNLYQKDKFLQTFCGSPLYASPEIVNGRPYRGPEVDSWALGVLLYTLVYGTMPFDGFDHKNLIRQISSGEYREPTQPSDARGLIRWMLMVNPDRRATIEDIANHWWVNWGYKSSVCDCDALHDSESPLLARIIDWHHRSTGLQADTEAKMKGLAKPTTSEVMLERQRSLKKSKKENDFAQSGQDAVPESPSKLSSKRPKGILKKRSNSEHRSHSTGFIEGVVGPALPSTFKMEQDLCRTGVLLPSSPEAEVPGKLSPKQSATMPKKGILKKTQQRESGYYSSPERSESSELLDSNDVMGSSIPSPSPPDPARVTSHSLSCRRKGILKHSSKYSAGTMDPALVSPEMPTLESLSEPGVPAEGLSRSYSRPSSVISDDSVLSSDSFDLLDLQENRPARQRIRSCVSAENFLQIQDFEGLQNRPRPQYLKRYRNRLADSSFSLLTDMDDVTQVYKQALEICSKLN

SMILES | assay | test system | conditions | scale | measurement | value
COc1c(OCCCN2CCOCC2)ccc2c1N=C(NC(=O)c1cnc(N)nc1)N1CCN=C21 | kinase activity, inhibitor |  | 1 µM | relative to: untreated control | remaining activity | 96%
COc1cc(Nc2nc(C)cc(-c3cnn4nc(OC)ccc34)n2)cc(C(F)(F)F)c1 | inhibitor |  | 1 µM, ARK5 | relative to: control | remaining activity | 100%
NC(=O)[C@@H](O)C[C@H]1CCc2sc3ncnc(O[C@H]4CC[C@H](N5CCOCC5)CC4)c3c21 | enzyme activity, inhibitor |  | 10 µM |  | inhibition | 21%
N[C@H]1CC[C@H](Nc2nccc(-c3cccnc3Oc3ccc(NC(=O)NC4CC4)c4ccccc34)n2)CC1 | kinobead competition pulldown | HEK293/HCT116 lysate mixture | 10 µM, 1 h, 4 °C | lower = stronger competition | log2 LFQ intensity | 21 and 20.9 and 20 and 21.1
C=CC(=O)Nc1cccc(-c2cnc3[nH]cc(C(=O)NC(C)(C)C)c3n2)c1 | kinase activity |  | 0.1 µM |  | inhibition | 91%
Cc1c[nH]c2nccc(-c3ccc(C(=O)N[C@@H]4c5c(F)cc(C(F)F)cc5C[C@@H]4O)cn3)c12 | binding, competition with immobilised ligand |  | 3 µM |  | remaining binding | 42%
Cc1ccc(-c2c(/C=C(\C#N)C(=O)NC(C)C)n(CCCO)c3ncnc(N)c23)cc1 | cell-free assay, competition with immobilised ligand |  | 1 µM |  | remaining binding | 100%
CCN1CCN(Cc2ccc(C(=O)Nc3ccc(C)c(NCc4cnc5[nH]ccc5c4OC)c3)cc2C(F)(F)F)CC1 | binding, competition with immobilised ligand |  | 1 µM |  | remaining binding | 100%
O=C(Cc1ccc(OCc2ccccc2)cc1)NC1(C(=O)O)CCN(C(=O)c2ccc(-c3cccc(Cl)c3)cc2)CC1 | enzyme activity, inhibitor |  | 10 µM |  | activity vs control | 113%
C=CC(=O)N1CCc2ccc(-n3c(=O)ccc4cnc5ccc(-c6cnn(C)c6)cc5c43)cc21 | KINOMEscan |  | 1 µM | relative to: DMSO control | remaining binding | 100%
O=C=[N][Ru-4]123([n]4c5ccc(O)cc5c5c6c(c7cc(F)c[n+]1c7c54)C(=O)NC6=O)[S+]1CC[S+]2CC[S+]3CC1 (stereo not shown) | enzyme activity |  | 100 nM, human enzyme, together with: 10 µM ATP | relative to: untreated | remaining activity | 88%
CN1CCN(Cc2ccc(-c3ccc(CO[C@H]4CCC[C@@H]4NC(=O)c4cc(-c5cnn(C)c5)cnc4N)cc3)cc2)CC1 | enzyme activity, inhibitor |  | 0.1 µM |  | inhibition | -17%
Cc1cnc2nc1Nc1cccc(c1)COC/C=C/COCc1cc(ccc1OCCN1CCOCC1)N2 | cell-free assay |  | 0.1 µM |  | remaining signal | 61%
C=CC(=O)N1CCCC(n2c(=O)c3ncccc3n(Cc3ccc(Oc4ccccc4)cc3)c2=O)C1 (stereo not shown) | cell-free assay, competition with immobilised ligand |  | 1 µM |  | remaining binding | 100%
Cc1cccc(O[C@H]2CCC[C@@H](C(C)CNCc3ccncc3)C2)c1 (relative stereo) | kinase activity, kinome panel screening |  | 1 µM |  | inhibition | -4%
CN1CC[C@@H](COc2cnc(C#N)cc2-c2ccn3nc(NC(=O)C4CC4)cc3c2)C1 | enzyme activity, inhibitor |  | 1 µM |  | inhibition | 17%
